Results pooled from the literature.
Numbers after ± are the reported error.
Chain of UniProt Q96RR4 (whole entry, looked up): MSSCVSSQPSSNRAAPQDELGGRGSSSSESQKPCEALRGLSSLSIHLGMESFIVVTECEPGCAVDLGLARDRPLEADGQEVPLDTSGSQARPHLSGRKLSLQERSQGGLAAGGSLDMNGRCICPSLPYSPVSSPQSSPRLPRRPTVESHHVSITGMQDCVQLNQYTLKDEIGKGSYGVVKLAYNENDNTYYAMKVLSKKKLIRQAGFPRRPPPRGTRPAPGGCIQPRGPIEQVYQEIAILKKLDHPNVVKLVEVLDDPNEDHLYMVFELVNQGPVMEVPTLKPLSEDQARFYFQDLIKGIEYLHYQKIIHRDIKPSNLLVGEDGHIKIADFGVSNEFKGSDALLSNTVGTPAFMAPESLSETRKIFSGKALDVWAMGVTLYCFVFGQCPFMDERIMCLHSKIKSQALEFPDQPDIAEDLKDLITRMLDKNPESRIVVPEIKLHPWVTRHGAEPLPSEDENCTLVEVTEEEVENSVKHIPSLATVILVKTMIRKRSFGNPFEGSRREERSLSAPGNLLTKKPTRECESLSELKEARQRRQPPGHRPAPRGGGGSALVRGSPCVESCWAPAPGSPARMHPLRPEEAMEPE
Chain of UniProt Q9NWZ3 (whole entry, looked up): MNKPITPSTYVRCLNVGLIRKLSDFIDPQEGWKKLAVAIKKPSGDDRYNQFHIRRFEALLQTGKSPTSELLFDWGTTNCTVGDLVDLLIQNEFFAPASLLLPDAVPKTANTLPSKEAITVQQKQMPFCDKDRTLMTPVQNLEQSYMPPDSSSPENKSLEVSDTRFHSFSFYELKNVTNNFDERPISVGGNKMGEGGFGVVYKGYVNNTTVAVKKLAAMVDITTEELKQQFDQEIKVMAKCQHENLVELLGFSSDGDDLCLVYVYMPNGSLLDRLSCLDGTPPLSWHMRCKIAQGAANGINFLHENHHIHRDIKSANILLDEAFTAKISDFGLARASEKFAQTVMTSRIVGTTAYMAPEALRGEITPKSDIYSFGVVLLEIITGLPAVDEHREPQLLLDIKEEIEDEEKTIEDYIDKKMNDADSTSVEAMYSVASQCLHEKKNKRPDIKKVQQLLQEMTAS

CC[C@H](C)[C@H](NC(=O)[C@H](CCCCN)NC(=O)CNC(=O)[C@H](CC(C)C)NC(=O)[C@H](Cc1ccccc1)NC(=O)[C@H](CCCCN)NC(=O)[C@H](CO)NC(=O)[C@H](Cc1ccccc1)NC(=O)[C@H](Cc1c[nH]c2ccccc12)NC(=O)[C@H](CCC(N)=O)NC(=O)[C@@H](NC(=O)[C@H](Cc1ccccc1)NC(=O)CCCCCNC(=O)CN1CCN(CC(=O)O)CCN(CC(=O)O)CCN(CC(=O)O)CC1)C(C)C)C(=O)N[C@@H](CCC(=O)O)C(=O)N1CCC[C@H]1C(=O)N[C@H](CC(=O)O)C(=O)N[C@H](C(=O)N[C@@H](CO)C(=O)N[C@@H](CCC(N)=O)C(=O)N[C@H](C(=O)N[C@@H](CCC(N)=O)C(=O)N[C@@H](CC(=O)O)C(=O)N1CCC[C@H]1C(=O)N[C@@H](CC(N)=O)C(=O)N[C@@H](CC(=O)O)C(=O)N[C@@H](CCC(N)=O)C(=O)N[C@@H](Cc1ccc(O)cc1)C(=O)N[C@@H](CCC(=O)O)C(=O)N1CCC[C@H]1C(=O)N[C@@H](Cc1ccccc1)C(=O)O)C(C)C)C(C)C [copper-64 labelled]  tissue uptake (C57BL/6 mice, male, MC-38 tumour-bearing, blood; 2 h, checkpoint inhibitor-treated): 0.39 ± 0.03 %ID/g
Cc1ccccc1-c1ccc(-c2nc(-c3ccc(CN(C)CCCC(=O)O)c([18F])c3)no2)cc1C(F)(F)F  tracer uptake (rat, kidney; 2 h): 0.9 %ID/g
COc1ccccc1-c1n[nH]c2nc(NC3CCN(C(=O)Cc4ccc(F)cc4F)CC3)ncc12  relative abundance (bead binding, competition bead pull-down, measured: LINJ.36.0800; Leishmania donovani extract; 10 µM; baseline: vehicle): 0.95
O=C1NC2(CC2)COc2ncc(F)cc2[C@H]2COCCN2c2ccn3ncc1c3n2  body weight (Sprague-Dawley rat, female; oral, 10 mg/kg/day, end of treatment, 4-week repeated-dose toxicity): 337 ± 36.8 g
CN(C(=O)c1ccn2ncc(-c3ccc(C(N)=O)cc3)c2c1)c1ccc(C#N)cn1  NOEL (male Wistar rat; oral, dose not given, 14 days daily, solid dispersion): 30 mg/kg/day
CS(C)(=O)=Nc1ccc(-c2ccc(-c3nc4cc(O[C@@H]5CO[C@H]6[C@@H]5OC[C@H]6O)[nH]c4cc3F)cc2)cc1  inhibition (Interleukin-1 receptor-associated kinase 4 (IRAK4, Homo sapiens, UniProt Q9NWZ3); enzyme activity, inhibitor; 10 µM): -14%
O=C(O)CC[C@H](NC(=O)[C@H](CCC(=O)O)NC(=O)[C@H](CCC(=O)O)NC(=O)[C@H](CCC(=O)O)NC(=O)[C@H](CCC(=O)O)NC(=O)CNC(=O)[C@H](CCC(=O)O)NC(=O)CNC(=O)[C@H](CCC(=O)O)NC(=O)[C@@H](Cc1ccccc1)NC(=O)[C@@H](Cc1ccccc1)NC(=O)Cc1ccc2ccccc2c1)C(=O)O  nanoparticle diameter (TEM; aqueous solution; 500 µM, pH 7): 13 ± 2 nm
CC(C)C[C@@H](NC(=O)[C@@H](CCCNC(=N)N)NC(=O)[C@@H](Cc1c[nH]cn1)NC(=O)[C@@H](Cc1c[nH]c2ccccc12)NC(=O)[C@@H](Cc1c[nH]cn1)NC(=O)[C@@H](Cc1ccccc1)NC(=O)[C@H](NC(=O)[C@@H](Cc1ccc(O)cc1)NC(=O)CNC(=O)CNC(=O)CCOCCOCCOCCNC(=O)CN1CCN(CC(=O)O)CCN(CC(=O)O)CC1)[C@H](C)O)C(=O)N[C@H](CC(N)=O)C(=O)N1CCC[C@@H]1C(=O)O [gallium-68 labelled]  tissue ratio (C57BL/6 mice, male; intravenous, 1.85 MBq, 30 min; baseline: tumour over heart): 1.08 ± 0.17
N#Cc1ccccc1CC(N)C(=O)NC(Cc1ccc(Cl)cc1Cl)C(=O)NC(CC(=O)NCCCc1cccnc1)Cc1ccc(F)cc1 (stereo not shown)  microsomal CLint (metabolic stability; CD-1 mouse, liver microsomes; 1 µM): 278 µL/min/mg
C[C@H](NC(=O)CNC(=O)[C@@H]1CCCN1C(=O)[C@H](CO)NC(=O)CNC(=O)[C@H](CO)NC(=O)[C@H](C)NC(=O)[C@H](CC(N)=O)NC(=O)[C@H](C)NC(=O)[C@H](CO)NC(=O)[C@H](C)NC(=O)[C@H](CO)NC(=O)[C@@H]1CCCN1C(=O)[C@H](Cc1ccccc1)NC(=O)[C@H](C)NC(=O)[C@H](CO)NC(=O)[C@@H]1CCCN1C(=O)[C@H](Cc1ccccc1)NC(=O)[C@@H](NC(=O)[C@H](CC(=O)O)NC(=O)[C@@H](N)CO)[C@@H](C)O)C(=O)N[C@@H](CCCNC(=N)N)C(=O)N[C@@H](CO)C(=O)O  remaining peptide (50% mouse plasma; 40 min): 1.02%
O=C1CC[C@H](N2Cc3cc(N4CCNCC4)ccc3C2=O)C(=O)N1  share of plasma AUC(0-72h) (female Sprague-Dawley rat, pooled plasma; oral, 20 mg/kg): 12.2%
CC(C)[C@H](NC(=O)[C@@H](NC(=O)[C@H](CCCNC(=N)N)NC(=O)[C@H](CCCNC(=N)N)NC(=O)[C@H](CCCNC(=N)N)NC(=O)[C@H](CCC(N)=O)NC(=O)[C@H](CCCNC(=N)N)NC(=O)[C@H](CCCNC(=N)N)NC(=O)[C@H](CCCCN)NC(=O)[C@H](CCCCN)NC(=O)[C@H](CCCNC(=N)N)NC(=O)CN)[C@@H](C)O)C(=O)N[C@H](C(=O)N[C@@H](CO)C(=O)N1CCC[C@H]1C(=O)O)[C@@H](C)O  organ weight (ICR mice, male, stomach; intranasal, 10 mg/kg daily, 4 weeks): 0.38 ± 0.04 g
CCCCC[C@@H]1NC(=O)[C@@H](C)N(C)C(=O)[C@H](CCCCC)NC(=O)[C@@H](C)N(C)C(=O)[C@H](CCCCC)N(C)C(=O)[C@@H](C)N(C)C(=O)[C@H](CCCCC)NC(=O)[C@@H](C)N(C)C1=O  log Papp (PAMPA; 500 µM, pH 7.4): 2.34 ×10⁻⁶ cm/s
C[C@H](NC(=O)[C@@H](N)CC(=O)O)C(=O)N[C@@H](Cc1c[nH]cn1)C(=O)N[C@@H](CCCCN)C(N)=O  intact peptide remaining (RP-HPLC; 50% human serum; 100 µM, 24 h, 37 °C): 13%
CC(CCC(=O)NCC(=O)O)C1CCC2C3C(O)CC4CC(OC5OC(C(=O)O)C(O)C(O)C5O)CCC4(C)C3CCC12C (stereo not shown)  plasma concentration (men, C/C genotype, plasma; dose not given, geometric mean): 392 ng/mL
CC[C@H](C)[C@H](NC(=O)[C@H](CCCNC(=N)N)NC(=O)[C@H](CCCCN)NC(=O)[C@H](Cc1ccc(O)cc1)NC(=O)[C@H](CC(=O)O)NC(=O)[C@H](C)NC(=O)CNC(=O)CCOCCOCCOCCNC(=O)CN1CCN(CC(=O)O)CCN(CC(=O)O)CCN(CC(=O)O)CC1)C(=O)N[C@H](C(=O)N[C@@H](CC(C)C)C(=O)N[C@@H](CCCCN)C(=O)N[C@H](C(=O)N[C@@H](CC(N)=O)C(N)=O)C(C)C)[C@@H](C)O [copper-64 labelled]  tissue uptake (ex vivo gamma counting; C57BL/6J male mice, B16-F10 tumour, pancreas; intravenous, 1.85 MBq, 100 min): 0.43 ± 0.148 %ID/g
CCCCCCCCCCCCCCCC(=O)N[C@@H](CCC(=O)NCCOCCOCCC(=O)NCCOCCOCCC(=O)NCCCC[C@H](NC(=O)[C@H](CC(=O)O)NC(=O)[C@H](CC(C)C)NC(=O)[C@H](Cc1ccc(O)cc1)NC(=O)[C@H](CCCCN)NC(=O)[C@H](CO)NC(=O)[C@H](Cc1ccc(O)cc1)NC(=O)[C@H](CC(=O)O)NC(=O)[C@H](CO)NC(=O)[C@@H](NC(=O)[C@H](Cc1ccccc1)NC(=O)[C@@H](NC(=O)CNC(=O)[C@H](CCC(N)=O)NC(=O)[C@@H](CO)NC(=O)[C@@H](N)Cc1c[nH]cn1)[C@@H](C)O)[C@@H](C)O)C(=O)N[C@@H](CCCNC(=N)N)C(=O)N[C@@H](CCCNC(=N)N)C(=O)N[C@@H](C)C(=O)N[C@@H](CCC(N)=O)C(=O)N[C@@H](CC(=O)O)C(=O)N[C@@H](Cc1ccccc1)C(=O)N[C@H](C(=O)N[C@@H](CCC(N)=O)C(=O)N[C@@H](Cc1c[nH]c2ccccc12)C(=O)N[C@@H](CC(C)C)C(=O)N[C@@H](CC(C)C)C(=O)N[C@@H](CC(N)=O)C(=O)N[C@H](C(=O)NCC(=O)NCC(=O)N1CCC[C@H]1C(=O)N[C@@H](CO)C(=O)N[C@@H](CO)C(=O)NCC(=O)N[C@@H](C)C(=O)N1CCC[C@H]1C(=O)N1CCC[C@H]1C(=O)N1CCC[C@H]1C(=O)N[C@@H](CO)C(N)=O)[C@@H](C)O)C(C)C)C(=O)O  AUC(0-t) (rhesus monkey, both sexes, plasma; subcutaneous, 20 µg/kg, multiple doses, day 1): 62.3 ± 19.5 ng·h/mL
CN1Cc2cc(Cl)ccc2-n2c(nnc2C2CCN(c3cccc([18F])n3)CC2)C1  total volume of distribution (PET two-tissue compartment model; rhesus monkey, cerebellum; intravenous, dose not given, 60 min scan, baseline scan): 0.82 ± 0.29 mL/cm3
CC(C)C[C@H](NC(=O)[C@H](C)NC(=O)[C@H](CCCCN)NC(=O)CCNC(=S)Nc1ccc2c(c1)C(=O)OC21c2ccc(O)cc2Oc2cc(O)ccc21)C(=O)N[C@@H](CCC(=O)O)C(=O)N[C@H](C(=O)N[C@@H](CC(C)C)C(=O)N[C@@H](CCCNC(=N)N)C(=O)N[C@@H](CCCNC(=N)N)C(=O)N[C@H](C(=O)NCC(=O)N[C@@H](CC(=O)O)C(=O)NCC(=O)N[C@H](C(=O)N[C@@H](CCC(N)=O)C(=O)N[C@@H](CCCNC(=N)N)C(=O)N[C@@]1(C)CCCC=CCCC[C@@](C)(C(=O)N[C@@H](Cc2ccccc2)C(N)=O)NC(=O)[C@H]([C@@H](C)O)NC(=O)[C@H](CCC(=O)O)NC(=O)[C@H](Cc2c[nH]cn2)NC1=O)C(C)C)C(C)C)[C@@H](C)O  α-helicity (circular dichroism; potassium phosphate buffer; 20 µM, pH 7.5): 68%
CN(C)[C@H]1C[C@@]23CC[C@@]4(O2)C(=CC[C@]2(C)[C@@H](c5ccc6ccncc6c5)CC[C@H]24)C=C3[C@@H](O)[C@@H]1O  inhibition (Calcium/calmodulin-dependent protein kinase kinase 2 (CAMKK2, Homo sapiens, UniProt Q96RR4); ATP probe labelling, inhibitor, KiNativ profiling; 0.1 µM): -4.3%
C[C@H](O)[C@@H](NC(=O)[C@H]1CCCN1C(=O)[C@@H](CCCCN)NC(=O)[C@@H](CO)NC(=O)[C@@H](Cc1ccc(O)cc1)NC(=O)[C@@H](CC(N)=O)NC(=O)CCOCCOCCOCCNC(=O)CN1CCN(CC(=O)O)CCN(CC(=O)O)CCN(CC(=O)O)CC1)C(=O)N[C@H](CC(=O)O)C(=O)N[C@H](CCCNC(=N)N)C(=O)N[C@H](CCC(N)=O)C(=O)N[C@H](Cc1ccc(O)cc1)C(=O)N[C@H](Cc1c[nH]cn1)C(=O)N[C@H](Cc1ccccc1)C(N)=O [gallium-68 labelled]  tissue uptake (ex vivo gamma counting; BALB/c nude mouse, U-87 MG xenograft, intestine; intravenous, 1.85 MBq, 120 min): 0.06 ± 0.03 %ID/g
CC(C)(C)C(=O)OCOP(=O)(OCOC(=O)C(C)(C)C)C1CCCN(O)C1=O (stereo not shown)  log LC50 (SNB-75): > -4 log M

Some of these lines once more:
CC(C)(C)C(=O)OCOP(=O)(OCOC(=O)C(C)(C)C)C1CCCN(O)C1=O (stereo not shown)  log LC50 (SNB-75): > -4 log M
CC(C)[C@H](NC(=O)[C@@H](NC(=O)[C@H](CCCNC(=N)N)NC(=O)[C@H](CCCNC(=N)N)NC(=O)[C@H](CCCNC(=N)N)NC(=O)[C@H](CCC(N)=O)NC(=O)[C@H](CCCNC(=N)N)NC(=O)[C@H](CCCNC(=N)N)NC(=O)[C@H](CCCCN)NC(=O)[C@H](CCCCN)NC(=O)[C@H](CCCNC(=N)N)NC(=O)CN)[C@@H](C)O)C(=O)N[C@H](C(=O)N[C@@H](CO)C(=O)N1CCC[C@H]1C(=O)O)[C@@H](C)O  organ weight (ICR mice, male, stomach; intranasal, 10 mg/kg daily, 4 weeks): 0.38 ± 0.04 g
C[C@H](O)[C@@H](NC(=O)[C@H]1CCCN1C(=O)[C@@H](CCCCN)NC(=O)[C@@H](CO)NC(=O)[C@@H](Cc1ccc(O)cc1)NC(=O)[C@@H](CC(N)=O)NC(=O)CCOCCOCCOCCNC(=O)CN1CCN(CC(=O)O)CCN(CC(=O)O)CCN(CC(=O)O)CC1)C(=O)N[C@H](CC(=O)O)C(=O)N[C@H](CCCNC(=N)N)C(=O)N[C@H](CCC(N)=O)C(=O)N[C@H](Cc1ccc(O)cc1)C(=O)N[C@H](Cc1c[nH]cn1)C(=O)N[C@H](Cc1ccccc1)C(N)=O [gallium-68 labelled]  tissue uptake (ex vivo gamma counting; BALB/c nude mouse, U-87 MG xenograft, intestine; intravenous, 1.85 MBq, 120 min): 0.06 ± 0.03 %ID/g
